Experimental data pooled from the literature.
Each line is one published result; not all experiments were run side by side. ± gives the spread as reported.
APP amyloid-beta peptide: Amyloid-beta precursor protein, amyloid-beta peptide (APP, Homo sapiens, UniProt P05067)
ESR1: Estrogen receptor (ESR1, Homo sapiens, UniProt P03372)

Sequences of proteins named here, by UniProt entry; tags and fusion partners are left off. Residues count along the entry.
UniProt O00748, 27-559 limits assumed: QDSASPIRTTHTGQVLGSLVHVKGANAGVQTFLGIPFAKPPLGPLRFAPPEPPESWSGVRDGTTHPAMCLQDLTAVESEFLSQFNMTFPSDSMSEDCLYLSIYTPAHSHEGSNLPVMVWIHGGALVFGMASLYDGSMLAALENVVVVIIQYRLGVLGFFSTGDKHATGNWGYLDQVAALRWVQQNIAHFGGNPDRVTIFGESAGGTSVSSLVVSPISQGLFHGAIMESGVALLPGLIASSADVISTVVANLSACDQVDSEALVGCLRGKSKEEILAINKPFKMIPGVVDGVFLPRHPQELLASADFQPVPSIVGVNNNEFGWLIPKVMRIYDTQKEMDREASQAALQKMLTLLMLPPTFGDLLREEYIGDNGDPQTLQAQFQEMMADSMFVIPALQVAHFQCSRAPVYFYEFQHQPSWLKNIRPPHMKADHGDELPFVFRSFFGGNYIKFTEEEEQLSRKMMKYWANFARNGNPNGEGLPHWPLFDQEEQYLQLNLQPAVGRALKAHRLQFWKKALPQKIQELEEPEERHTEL
UniProt P09917, whole entry: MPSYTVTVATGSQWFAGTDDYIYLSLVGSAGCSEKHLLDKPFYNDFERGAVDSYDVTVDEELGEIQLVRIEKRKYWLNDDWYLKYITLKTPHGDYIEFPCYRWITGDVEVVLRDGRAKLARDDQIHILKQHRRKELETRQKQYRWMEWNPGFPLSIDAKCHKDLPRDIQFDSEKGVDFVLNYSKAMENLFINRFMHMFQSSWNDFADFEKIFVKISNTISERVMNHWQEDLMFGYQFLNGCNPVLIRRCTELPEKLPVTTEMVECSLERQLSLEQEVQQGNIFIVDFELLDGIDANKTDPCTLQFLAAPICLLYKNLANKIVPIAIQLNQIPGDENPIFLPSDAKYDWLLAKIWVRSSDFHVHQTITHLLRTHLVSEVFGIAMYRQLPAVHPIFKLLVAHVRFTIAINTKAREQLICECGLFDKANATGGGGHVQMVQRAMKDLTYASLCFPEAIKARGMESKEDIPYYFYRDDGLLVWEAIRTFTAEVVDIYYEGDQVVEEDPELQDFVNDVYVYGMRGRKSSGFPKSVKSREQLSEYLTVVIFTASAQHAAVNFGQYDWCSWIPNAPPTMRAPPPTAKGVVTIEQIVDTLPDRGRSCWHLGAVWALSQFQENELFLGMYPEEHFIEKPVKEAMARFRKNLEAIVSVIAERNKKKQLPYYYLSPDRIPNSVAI
UniProt P22455, 22-802 limits assumed: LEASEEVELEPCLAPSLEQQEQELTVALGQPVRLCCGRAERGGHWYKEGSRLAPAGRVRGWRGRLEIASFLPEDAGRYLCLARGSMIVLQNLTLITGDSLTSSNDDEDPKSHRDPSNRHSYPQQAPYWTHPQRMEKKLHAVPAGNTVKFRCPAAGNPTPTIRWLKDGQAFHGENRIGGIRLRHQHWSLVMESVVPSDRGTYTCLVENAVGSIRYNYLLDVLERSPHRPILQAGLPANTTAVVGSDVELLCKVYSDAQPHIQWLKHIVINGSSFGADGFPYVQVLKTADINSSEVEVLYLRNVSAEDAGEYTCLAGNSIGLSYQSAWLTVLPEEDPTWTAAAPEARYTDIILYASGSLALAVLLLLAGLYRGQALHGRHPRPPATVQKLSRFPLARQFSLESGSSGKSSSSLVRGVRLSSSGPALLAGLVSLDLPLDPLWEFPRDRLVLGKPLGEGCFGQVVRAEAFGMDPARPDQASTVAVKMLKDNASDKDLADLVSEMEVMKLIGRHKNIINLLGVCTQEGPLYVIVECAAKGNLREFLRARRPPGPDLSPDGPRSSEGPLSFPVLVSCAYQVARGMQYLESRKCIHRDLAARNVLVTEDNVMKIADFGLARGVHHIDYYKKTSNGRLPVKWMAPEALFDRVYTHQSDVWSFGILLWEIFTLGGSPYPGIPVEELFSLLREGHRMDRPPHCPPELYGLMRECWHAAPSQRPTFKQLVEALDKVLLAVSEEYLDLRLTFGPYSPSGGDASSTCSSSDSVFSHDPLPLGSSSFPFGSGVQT
UniProt Q8TDS5, whole entry: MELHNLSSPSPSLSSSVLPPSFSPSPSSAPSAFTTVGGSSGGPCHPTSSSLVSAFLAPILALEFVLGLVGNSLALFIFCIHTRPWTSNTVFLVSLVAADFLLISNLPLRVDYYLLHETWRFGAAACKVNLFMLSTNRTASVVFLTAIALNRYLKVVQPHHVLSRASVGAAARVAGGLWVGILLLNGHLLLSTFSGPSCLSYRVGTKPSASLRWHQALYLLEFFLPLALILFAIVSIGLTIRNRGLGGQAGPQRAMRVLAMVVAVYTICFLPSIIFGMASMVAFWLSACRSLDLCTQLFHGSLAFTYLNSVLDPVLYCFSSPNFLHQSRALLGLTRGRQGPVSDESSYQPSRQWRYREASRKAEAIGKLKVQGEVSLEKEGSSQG
UniProt P19784, whole entry: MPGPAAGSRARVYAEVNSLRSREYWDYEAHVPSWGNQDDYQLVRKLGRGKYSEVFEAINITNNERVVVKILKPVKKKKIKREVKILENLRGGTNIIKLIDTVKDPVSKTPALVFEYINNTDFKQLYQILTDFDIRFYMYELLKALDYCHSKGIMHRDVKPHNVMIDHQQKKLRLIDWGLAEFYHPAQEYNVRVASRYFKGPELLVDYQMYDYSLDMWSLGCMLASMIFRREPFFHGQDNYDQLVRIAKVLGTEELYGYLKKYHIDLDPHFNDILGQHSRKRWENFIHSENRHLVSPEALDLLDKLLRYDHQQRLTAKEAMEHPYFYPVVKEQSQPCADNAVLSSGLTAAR
UniProt P11362, 22-822 limits assumed: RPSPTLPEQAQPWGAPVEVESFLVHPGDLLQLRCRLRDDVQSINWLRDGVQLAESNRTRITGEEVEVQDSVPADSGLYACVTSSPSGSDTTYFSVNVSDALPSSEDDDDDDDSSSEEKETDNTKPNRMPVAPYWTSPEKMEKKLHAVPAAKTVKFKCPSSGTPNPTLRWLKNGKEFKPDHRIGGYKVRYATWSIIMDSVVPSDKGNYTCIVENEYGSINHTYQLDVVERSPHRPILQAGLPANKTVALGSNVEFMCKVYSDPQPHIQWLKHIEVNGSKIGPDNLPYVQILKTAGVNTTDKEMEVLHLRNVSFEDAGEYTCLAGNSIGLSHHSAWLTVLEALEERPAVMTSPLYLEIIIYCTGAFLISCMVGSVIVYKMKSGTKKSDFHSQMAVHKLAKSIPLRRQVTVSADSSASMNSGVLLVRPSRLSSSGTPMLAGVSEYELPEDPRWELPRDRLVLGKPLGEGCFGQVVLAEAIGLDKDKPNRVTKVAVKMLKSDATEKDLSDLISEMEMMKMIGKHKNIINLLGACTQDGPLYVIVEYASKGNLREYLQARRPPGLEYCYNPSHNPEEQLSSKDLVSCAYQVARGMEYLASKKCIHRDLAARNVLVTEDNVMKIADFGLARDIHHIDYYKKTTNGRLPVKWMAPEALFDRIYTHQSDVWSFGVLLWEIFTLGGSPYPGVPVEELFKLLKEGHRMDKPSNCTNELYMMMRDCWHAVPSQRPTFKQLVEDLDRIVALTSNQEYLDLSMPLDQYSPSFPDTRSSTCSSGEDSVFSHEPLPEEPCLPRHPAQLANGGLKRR
UniProt P45983, 1-384 isoform 3: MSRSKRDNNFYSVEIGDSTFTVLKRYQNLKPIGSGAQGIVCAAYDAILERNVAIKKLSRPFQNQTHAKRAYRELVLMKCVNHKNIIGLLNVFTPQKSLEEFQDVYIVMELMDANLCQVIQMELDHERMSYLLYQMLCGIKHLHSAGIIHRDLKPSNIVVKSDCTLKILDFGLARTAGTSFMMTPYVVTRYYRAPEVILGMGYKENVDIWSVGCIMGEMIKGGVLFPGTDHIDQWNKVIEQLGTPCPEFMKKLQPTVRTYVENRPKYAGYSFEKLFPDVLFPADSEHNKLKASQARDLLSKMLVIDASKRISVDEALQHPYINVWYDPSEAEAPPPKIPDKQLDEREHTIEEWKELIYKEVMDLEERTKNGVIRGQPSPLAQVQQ
UniProt Q92630, whole entry: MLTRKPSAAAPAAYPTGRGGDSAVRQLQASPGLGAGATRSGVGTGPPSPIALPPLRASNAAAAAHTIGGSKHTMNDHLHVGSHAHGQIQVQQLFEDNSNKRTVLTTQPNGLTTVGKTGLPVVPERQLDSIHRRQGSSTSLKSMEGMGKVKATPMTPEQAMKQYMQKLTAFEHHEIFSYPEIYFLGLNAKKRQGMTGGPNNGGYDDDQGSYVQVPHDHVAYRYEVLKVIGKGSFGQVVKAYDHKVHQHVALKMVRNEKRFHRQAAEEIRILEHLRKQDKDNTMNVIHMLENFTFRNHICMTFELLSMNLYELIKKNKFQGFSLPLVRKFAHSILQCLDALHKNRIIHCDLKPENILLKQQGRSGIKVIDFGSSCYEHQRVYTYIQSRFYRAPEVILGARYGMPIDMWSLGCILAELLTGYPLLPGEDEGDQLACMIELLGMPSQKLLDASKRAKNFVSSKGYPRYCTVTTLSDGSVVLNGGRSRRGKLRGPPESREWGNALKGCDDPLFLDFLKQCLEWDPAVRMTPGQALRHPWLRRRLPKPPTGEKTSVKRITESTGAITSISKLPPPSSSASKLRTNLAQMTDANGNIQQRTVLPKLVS
UniProt P46116, whole entry: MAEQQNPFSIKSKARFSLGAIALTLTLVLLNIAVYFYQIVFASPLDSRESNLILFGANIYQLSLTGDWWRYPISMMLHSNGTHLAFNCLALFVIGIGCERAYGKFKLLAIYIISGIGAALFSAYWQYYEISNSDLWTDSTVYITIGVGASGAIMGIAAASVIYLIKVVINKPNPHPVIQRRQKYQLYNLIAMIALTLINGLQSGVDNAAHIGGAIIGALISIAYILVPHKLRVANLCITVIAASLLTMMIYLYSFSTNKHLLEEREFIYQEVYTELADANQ
UniProt Q13304, whole entry: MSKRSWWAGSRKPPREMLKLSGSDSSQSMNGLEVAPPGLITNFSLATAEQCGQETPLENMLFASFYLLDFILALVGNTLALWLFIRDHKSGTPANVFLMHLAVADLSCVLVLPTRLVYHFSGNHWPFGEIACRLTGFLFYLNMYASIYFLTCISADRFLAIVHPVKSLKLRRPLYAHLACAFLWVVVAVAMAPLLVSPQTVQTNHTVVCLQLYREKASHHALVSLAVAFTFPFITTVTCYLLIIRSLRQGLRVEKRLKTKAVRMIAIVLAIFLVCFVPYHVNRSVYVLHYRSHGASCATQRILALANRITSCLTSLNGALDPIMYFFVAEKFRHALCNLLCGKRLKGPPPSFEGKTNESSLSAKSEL
UniProt O88693, whole entry: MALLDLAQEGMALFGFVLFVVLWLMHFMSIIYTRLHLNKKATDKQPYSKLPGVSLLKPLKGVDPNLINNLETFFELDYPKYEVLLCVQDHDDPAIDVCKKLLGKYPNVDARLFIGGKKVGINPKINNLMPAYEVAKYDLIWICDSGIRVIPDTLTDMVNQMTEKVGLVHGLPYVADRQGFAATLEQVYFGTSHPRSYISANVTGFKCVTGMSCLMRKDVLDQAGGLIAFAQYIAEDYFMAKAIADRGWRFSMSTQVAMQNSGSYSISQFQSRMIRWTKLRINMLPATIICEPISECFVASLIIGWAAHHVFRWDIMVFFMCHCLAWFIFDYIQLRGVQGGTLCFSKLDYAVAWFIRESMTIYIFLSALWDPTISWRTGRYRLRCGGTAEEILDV
UniProt Q6P5Z2, whole entry: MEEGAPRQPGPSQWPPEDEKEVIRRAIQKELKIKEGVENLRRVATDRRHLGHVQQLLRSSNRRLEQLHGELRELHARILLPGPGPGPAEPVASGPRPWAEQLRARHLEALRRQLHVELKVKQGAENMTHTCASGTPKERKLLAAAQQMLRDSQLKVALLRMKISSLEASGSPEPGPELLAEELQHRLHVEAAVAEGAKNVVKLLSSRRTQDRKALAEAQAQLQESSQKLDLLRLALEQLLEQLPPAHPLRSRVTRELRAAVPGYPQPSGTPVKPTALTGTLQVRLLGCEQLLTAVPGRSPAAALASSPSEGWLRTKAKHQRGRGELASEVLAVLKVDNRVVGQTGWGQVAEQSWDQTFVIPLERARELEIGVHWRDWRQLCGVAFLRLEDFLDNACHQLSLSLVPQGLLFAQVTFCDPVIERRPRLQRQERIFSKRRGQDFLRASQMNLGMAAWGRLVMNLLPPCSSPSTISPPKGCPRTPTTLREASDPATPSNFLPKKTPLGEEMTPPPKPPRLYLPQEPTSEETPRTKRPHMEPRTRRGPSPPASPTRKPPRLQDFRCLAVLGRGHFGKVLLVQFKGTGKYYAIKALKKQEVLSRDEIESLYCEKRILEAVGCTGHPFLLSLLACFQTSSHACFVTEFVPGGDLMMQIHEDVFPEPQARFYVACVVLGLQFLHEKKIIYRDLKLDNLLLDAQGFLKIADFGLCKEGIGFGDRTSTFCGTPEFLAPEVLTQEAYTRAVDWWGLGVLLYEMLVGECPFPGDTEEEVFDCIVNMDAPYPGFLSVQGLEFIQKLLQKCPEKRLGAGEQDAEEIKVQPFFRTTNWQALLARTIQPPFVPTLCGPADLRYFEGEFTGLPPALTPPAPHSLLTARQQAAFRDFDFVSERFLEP

Structure (SMILES) = COc1ccc2[nH]cc(/C=C/c3cccc(F)c3)c2c1; target or system = APP amyloid-beta peptide; test = Aβ42 oligomerisation, ELISA; quantity = IC50; value = > 20 µM
Structure (SMILES) = Cc1ncc(CN(C)c2ccc3c(c2)c(=O)c(C(N)=O)cn3-c2ccc(F)cc2)cn1; target or system = Grm2 (Rattus norvegicus, UniProt P31421); test = calcium mobilization, negative allosteric modulator; quantity = IC50; value = 0.147 µM
Structure (SMILES) = C=CCN(CC=C)C(=O)Oc1ccccc1C=C1Cc2cc(OC)c(OC)cc2C1=O; target or system = Cocaine esterase (CES2, Homo sapiens, UniProt O00748); test = inhibitor; setting = 33 min preincubation, with: fluorescein diacetate; quantity = IC50; value = 0.0758 ± 0.00477 µM
Structure (SMILES) = COc1ccc(C(CCc2ccc(O)cc2OC)c2cc(CCC(=O)c3ccc(O)cc3)c(OC)cc2O)cc1 (racemic); target or system = ALOX5 (Homo sapiens, UniProt P09917); test = enzyme activity; test system = cell-free; setting = with: arachidonic acid 20 µM; quantity = IC50; value = 0.3 ± 0.09 µM
Structure (SMILES) = N#Cc1ccc2[nH]cc(/C=C/c3cccc(F)c3)c2c1; target or system = APP amyloid-beta peptide; test = Aβ42 oligomerisation, ELISA; quantity = IC50; value = > 20 µM
Structure (SMILES) = Cc1cc(Nc2ncc3c(n2)N(C)C(=O)N(c2cc(NC(=O)c4cccc(C(F)(F)F)c4)ccc2C)C3)n(C)n1; target or system = FGFR4 (Homo sapiens, UniProt P22455); test = enzyme activity, inhibitor, radiometric kinase; quantity = IC50; value = < 0.001 µM
Structure (SMILES) = O=C(Nc1ccc(-c2nc3ccccc3[nH]2)cc1)c1ccccc1Br; target or system = Tyrosine-protein kinase SYK, with FCER1G (SYK, Homo sapiens, UniProt P43405); test = protein binding, inhibitor, TR-FRET; quantity = IC50; value = > 100 µM
Structure (SMILES) = CCCCC[C@@H](O)c1c(C(=O)C[C@@H](C)CC(=O)O)c2cc(Cl)ccc2n1C; target or system = OXER1 (Homo sapiens, UniProt Q8TDS5); test = calcium mobilization, antagonist; test system = human neutrophils; setting = with: 5-oxo-ETE 10 nM; quantity = IC50; value = > 10 µM
Structure (SMILES) = CC(=O)Nc1cc(Nc2cc(NC3CC3)n3ncc(C#N)c3n2)ccc1N(C)Cc1ccccc1; target or system = CSNK2A2 (Homo sapiens, UniProt P19784); test = target engagement, NanoBRET; test system = HEK293; quantity = IC50; value = 0.13 µM
Structure (SMILES) = O=C(CCCn1c(=S)[nH]c2ccccc2c1=O)N1CCN(c2ccccc2C(F)(F)F)CC1; target or system = ESR1; test = reporter gene, antagonist; test system = HEC-1 cells transfected with ERα; setting = with: estradiol 1 nM; quantity = IC50; value = 11.9 µM
Structure (SMILES) = C=CC(=O)Nc1ccc(-n2nc3c(=O)[nH]nc(N)c3c2-c2oc3ccc(C)cc3c2C)cc1N(C)CCN(C)C; target or system = FGFR1 (Homo sapiens, UniProt P11362); test = kinase activity, inhibitor, ELISA; quantity = IC50; value = 0.0833 ± 0.0119 µM
Structure (SMILES) = O=C(CCCn1c(=S)[nH]c2ccccc2c1=O)N1CCN(c2ccccc2O)CC1; target or system = ESR1; test = reporter gene, antagonist; test system = HEC-1 cells transfected with ERα; setting = with: estradiol 1 nM; quantity = IC50; value = 4.8 µM
Structure (SMILES) = Cc1n[nH]c(C)c1CCOC(=O)c1cccc2c1oc(=O)n2C; test system = human plasma; quantity = half-life; value = > 2.5 h
Structure (SMILES) = COC(=O)[C@@]1(C)C=C(C(=O)Nc2cccc(C(=O)NC34CC(Nc5nccc(-c6cccnc6)n5)(C3)C4)c2)C(=O)CC1; target or system = MAPK8 (Homo sapiens, UniProt P45983); test = kinase activity, inhibitor; setting = 44.44 µM, with: 10 mM GSH; quantity = remaining activity; value = 0.0213 fraction of control
Structure (SMILES) = Cc1cc(SCc2sc(-c3ccc(OC(F)(F)F)c(F)c3)nc2C)ccc1OCC(=O)O; target or system = HEK293T; setting = 18 h; quantity = CC50; value = > 50 µM
Structure (SMILES) = CCCCNCC1=Cc2cc3c(cc2[C@@H](c2cc(OC)c(OC)c(OC)c2)[C@@H]1C(=O)OC)OCO3; target or system = Leishmania infantum; test system = promastigote, iRFP; quantity = EC50; value = 38.3 ± 3.7 µM
Structure (SMILES) = COc1ccc(-c2nc(C)c(CSc3ccc(OCC(=O)O)c(C)c3)s2)cc1OC; target or system = HEK293T; setting = 18 h; quantity = CC50; value = > 100 µM
Structure (SMILES) = COc1ccc2nc3ccc(OC)cc3c(CCCCN)c2c1; target or system = DYRK2 (Homo sapiens, UniProt Q92630); test = inhibitor; setting = inactive at 20 µM, with: Woodtide peptide substrate; quantity = IC50; value = 0.24 µM
Structure (SMILES) = O=C(O)CNC(=O)c1cc(C(=O)O)cc([C@H]2CCN[C@@H]2C(=O)O)c1; target or system = kainate receptor (rat); test = binding, radioligand binding; test system = rat cortical synaptosomes; setting = with: [3H]kainate; quantity = IC50; value = 44 µM
Structure (SMILES) = COc1ccc2c3c(cccc13)C(=O)N(C)C2=O; target or system = Rhomboid protease AarA (Providencia stuartii, UniProt P46116); test = inhibitor, fluorogenic peptide substrate; quantity = IC50; value = 13.6 µM
Structure (SMILES) = COc1cc([C@@H]2c3cc4c(cc3C=C(C=O)[C@H]2C(=O)OCCCBr)OCO4)cc(OC)c1OC; target or system = Leishmania infantum; test system = promastigote, iRFP; quantity = EC50; value = 35.2 ± 7.5 µM
Structure (SMILES) = O=C(Nc1cccc(-c2cc[nH]n2)c1)C(NS(=O)(=O)c1cccs1)c1ccccc1 (stereo not drawn); target or system = Uracil nucleotide/cysteinyl leukotriene receptor, long isoform (GPR17, Homo sapiens, UniProt Q13304); test = calcium mobilization, antagonist; test system = 1321-N1; quantity = IC50; value = 11.7 ± 0.42 µM
Structure (SMILES) = OC[C@@H]1[C@@H](O)[C@H](O)[C@@H](O)CN1CCCCCOCc1ccc(-c2cccnc2)cc1; target or system = Ugcg (Mus musculus, UniProt O88693); test = inhibitor, C6-NBD-ceramide in situ; test system = RAW264.7; quantity = IC50; value = 2 µM
Structure (SMILES) = COc1cc(Nc2ccnc3cc(Cl)ccc23)cc(OC)c1OC; target or system = PKN3 (Homo sapiens, UniProt Q6P5Z2); test = target engagement, NanoBRET; test system = HEK293; quantity = IC50; value = > 10 µM

Repeated from above:
Structure (SMILES) = C=CC(=O)Nc1ccc(-n2nc3c(=O)[nH]nc(N)c3c2-c2oc3ccc(C)cc3c2C)cc1N(C)CCN(C)C; target or system = FGFR1 (Homo sapiens, UniProt P11362); test = kinase activity, inhibitor, ELISA; quantity = IC50; value = 0.0833 ± 0.0119 µM
Structure (SMILES) = O=C(CCCn1c(=S)[nH]c2ccccc2c1=O)N1CCN(c2ccccc2O)CC1; target or system = ESR1; test = reporter gene, antagonist; test system = HEC-1 cells transfected with ERα; setting = with: estradiol 1 nM; quantity = IC50; value = 4.8 µM
Structure (SMILES) = Cc1n[nH]c(C)c1CCOC(=O)c1cccc2c1oc(=O)n2C; test system = human plasma; quantity = half-life; value = > 2.5 h
